Assay results collected from several papers.
Compare with care: the assays were run in different laboratories.
Cell line: HEK293

`CC[C@H](C)[C@@H](C(=O)N[C@@H](Cc1ccc(O)cc1)C(=O)N1CCC[C@H]1C(=O)N[C@@H](Cc1ccccc1)C(=O)O)n1cc(C(Cc2ccc(O)cc2)NC(=O)[C@@H](NC(=O)[C@H](CCCNC(=N)N)NC(=O)[C@@H](N)CC(=O)O)C(C)C)nn1` (stereo partly drawn) gave a viability of 92.5% (cell growth or viability, MTT; 25 µM, 24 h).
For `O=C(CN1C(=O)CSC1=O)Oc1ccc(/C=N/NC(=O)c2ccncc2)cc1Cl`, the viability was over 70% (cell growth or viability, MTT; 50 µg/mL, 24 h).
With `N=C(N)NCCC[C@@H]1NC(=O)[C@H](CCCNC(=N)N)NC(=O)[C@@H](CCCNC(=N)N)NC(=O)[C@@H](CCCNC(=N)N)NC(=O)[C@@H](Cc2ccc3ccccc3c2)NC(=O)[C@H](Cc2c[nH]c3ccccc23)NC(=O)[C@@H](Cc2ccc3ccccc3c2)NC1=O` the viability was 67 to 72% (cell growth or viability, MTS; 200 µg/mL, 24 h).
The viability of `c1cc2nc(c1)-c1cccc(n1)CCCc1ccc(cc1)OCCCCCCOc1ccc(cc1)CCC2` is reported as 91.8% (cell growth or viability, MTT; 12.5 µM, 24 h).
For `CN1CCCNC(=O)c2cccc(c2)C(=O)NCCCN(C)CCCNc2cccc3c2C(=O)c2cccc(c2C3=O)NCCC1`, the viability was 4.66% (cell growth or viability, CCK-8; 15 µM, 48 h).
For `CCOc1cc(/C=N/NC(=O)c2ccncc2)ccc1OC(=O)CN1C(=O)CSC1=O`, the viability was over 70% (cell growth or viability, MTT; 30 µg/mL, 24 h).
`Cc1ccc(-n2cc(CSc3nc4ccccc4n3Cc3cn(-c4ccc(C)cc4)nn3)nn2)cc1` gave a viability of 29.4% (MTT; 62.5 ppm).
The viability of `N=C(N)NCCC[C@@H]1NC(=O)[C@H](CCCNC(=N)N)NC(=O)[C@@H](C(c2ccccc2)c2ccccc2)NC(=O)[C@H](Cc2c[nH]c3ccccc23)NC(=O)[C@@H](C(c2ccccc2)c2ccccc2)NC(=O)[C@@H](CCCNC(=N)N)NC(=O)[C@@H](CCCNC(=N)N)NC1=O` is reported as 72 to 77% (cell growth or viability, MTS; 200 µg/mL, 24 h).
`O=C(CN1C(=O)CSC1=O)Oc1ccc(/C=N/NC(=O)c2ccncc2)cc1` gave a viability of over 70% (cell growth or viability, MTT; 40 µg/mL, 24 h).

Excerpt of the above:
For `CN1CCCNC(=O)c2cccc(c2)C(=O)NCCCN(C)CCCNc2cccc3c2C(=O)c2cccc(c2C3=O)NCCC1`, the viability was 4.66% (cell growth or viability, CCK-8; 15 µM, 48 h).
